Values quoted from earlier work, collected from citations in different studies.
Chain of UniProt Q15759 (whole entry, looked up): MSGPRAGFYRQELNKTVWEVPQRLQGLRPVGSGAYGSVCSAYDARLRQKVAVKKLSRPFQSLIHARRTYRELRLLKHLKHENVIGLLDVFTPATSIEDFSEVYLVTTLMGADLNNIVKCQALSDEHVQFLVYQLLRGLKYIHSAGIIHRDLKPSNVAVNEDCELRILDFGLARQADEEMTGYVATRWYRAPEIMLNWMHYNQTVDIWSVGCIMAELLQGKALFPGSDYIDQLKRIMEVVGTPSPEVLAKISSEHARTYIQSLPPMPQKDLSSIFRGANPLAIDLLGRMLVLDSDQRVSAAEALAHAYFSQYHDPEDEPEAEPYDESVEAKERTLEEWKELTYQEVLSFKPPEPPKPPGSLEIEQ

Under “plasma elimination half-life”, `CCN1CCN(Cc2ccc(Nc3ncc(F)c(-c4cc(F)c5nc(C)n(C(C)C)c5c4)n3)nc2)CC1` is recorded as 21 h (human patients; 200 mg, mean).
With `CC(C)c1nc(CN(C)C(=O)N[C@@H](CCN2CCOCC2)C(=O)N[C@H](CC[C@H](Cc2ccccc2)NC(=O)OCc2cncs2)Cc2ccccc2)cs1` the plasma half-life was 3 to 4 h (human).
With `CC(C)c1nc(CN(C)C(=O)N[C@H](C(=O)N[C@@H](Cc2ccccc2)C[C@H](O)[C@H](Cc2ccccc2)NC(=O)OCc2cncs2)C(C)C)cs1` the plasma concentration was 15 µM (human; 600 mg twice daily, HIV clinical dosing).
For `C#C[C@]1(CO)O[C@@H](n2cnc3c(N)nc(F)nc32)C[C@@H]1O`, “plasma AUC(0-inf) increase” read 10% (human; 30 mg, together with: high-fat meal; reference: fasted).
`Cc1ccc(NC(=O)c2ccc(CN3CCNCC3)cc2)cc1Nc1nc(-c2cccnc2)cs1` — result for “plasma concentration relative to parent”: 20 to 30% (human, plasma; dose not given, steady state, major metabolite; reference: masitinib).
`Clc1ccc(C(c2ccccc2Cl)C(Cl)Cl)cc1` (centres unmarked): “plasma elimination half-life” 432 to 3820 h (human).
The plasma concentration of `Cc1ccc(NC(=O)c2ccc(CN3CCN(C)CC3)cc2)cc1Nc1nc(-c2cccnc2)cs1` is reported as 1.7 µM (human, plasma; 300 mg twice daily).
The plasma clearance of `CC(C)(O)c1ccccc1CC[C@@H](SCC1(CC(=O)O)CC1)c1cccc(/C=C/c2ccc3ccc(Cl)cc3n2)c1` is reported as 0.71 mL/min/kg (human; average of reported values).
`Nc1cc(C(F)(F)F)c(-c2nc(N3CCOCC3)nc(N3CCOCC3)n2)cn1` gave a remaining activity of 95% (MAPK11 (Homo sapiens, UniProt Q15759); enzyme activity; 10 µM; reference: untreated).
The plasma clearance of `CC(=O)CC(c1ccccc1)c1c(O)c2ccccc2oc1=O` (centres unmarked) is reported as 0.051 mL/min/kg (human; average of reported values).
`CNS(=O)(=O)Nc1nccc(Cc2c(C)c3ccc(Oc4ncccn4)cc3oc2=O)c1F` gave a plasma half-life of 60 h (human, plasma).

A few entries again:
`Clc1ccc(C(c2ccccc2Cl)C(Cl)Cl)cc1` (centres unmarked): “plasma elimination half-life” 432 to 3820 h (human).
